Assay results of several laboratories.
A part holds a random share of what one study measured.

Set 1
Target: Histone acetyltransferase KAT6A, winged helix 1, GST fusion (KAT6A, Homo sapiens, UniProt Q92794, residues 1-85)
Technique: protein binding microarray
Molecule type: double-stranded DNA, one strand shown
Medium: in vitro
Concentration: not given
Setting: 8-mer, flanks averaged, mean of 2 arrays, mostly near background
Relative to: not given
Direction: higher = stronger binding
Endpoint: E-score
Residues (chain): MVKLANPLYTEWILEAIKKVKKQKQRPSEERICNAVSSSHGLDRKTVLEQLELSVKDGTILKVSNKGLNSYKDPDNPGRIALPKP
Sequence = CCCTACTA; value = 0.0628
Sequence = CAGTCATA; value = -0.206
Sequence = AGATGCTA; value = -0.0529
Sequence = ATAATGTG; value = -0.115
Sequence = ATGTCGTC; value = -0.208
Sequence = GTGTATAA; value = -0.0454

Set 2
Target: Sal-like protein 4, full length isoform A (SALL4, Homo sapiens, UniProt Q9UJQ4, residues 1-1053)
UniProt Q9UJQ4, sequence (whole entry, looked up): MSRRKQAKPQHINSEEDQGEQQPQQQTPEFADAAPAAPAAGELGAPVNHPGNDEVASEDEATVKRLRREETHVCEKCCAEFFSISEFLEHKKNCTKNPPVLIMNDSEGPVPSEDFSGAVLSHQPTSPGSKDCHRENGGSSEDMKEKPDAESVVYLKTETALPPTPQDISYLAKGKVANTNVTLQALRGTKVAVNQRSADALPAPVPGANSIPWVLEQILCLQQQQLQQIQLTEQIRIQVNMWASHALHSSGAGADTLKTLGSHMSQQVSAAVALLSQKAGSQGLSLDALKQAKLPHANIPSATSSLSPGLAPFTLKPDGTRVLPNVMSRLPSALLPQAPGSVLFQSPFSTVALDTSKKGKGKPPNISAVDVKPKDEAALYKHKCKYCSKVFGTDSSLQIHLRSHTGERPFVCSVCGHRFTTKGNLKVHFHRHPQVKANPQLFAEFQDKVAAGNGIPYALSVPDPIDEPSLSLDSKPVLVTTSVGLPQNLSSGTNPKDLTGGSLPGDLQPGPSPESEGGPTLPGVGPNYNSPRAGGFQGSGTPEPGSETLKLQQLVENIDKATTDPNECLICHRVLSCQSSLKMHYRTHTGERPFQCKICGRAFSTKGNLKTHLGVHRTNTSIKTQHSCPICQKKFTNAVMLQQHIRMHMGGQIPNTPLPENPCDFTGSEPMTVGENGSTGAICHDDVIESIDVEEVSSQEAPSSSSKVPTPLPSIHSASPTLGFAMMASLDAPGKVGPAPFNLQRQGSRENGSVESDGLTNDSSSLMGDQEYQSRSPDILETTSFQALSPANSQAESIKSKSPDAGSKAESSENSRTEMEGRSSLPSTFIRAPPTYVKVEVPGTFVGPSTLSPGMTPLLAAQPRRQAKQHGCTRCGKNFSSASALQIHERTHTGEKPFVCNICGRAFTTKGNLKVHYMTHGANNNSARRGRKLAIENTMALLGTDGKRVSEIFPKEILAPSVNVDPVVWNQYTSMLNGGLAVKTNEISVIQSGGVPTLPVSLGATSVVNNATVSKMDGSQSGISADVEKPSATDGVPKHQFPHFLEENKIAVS
Technique: universal PBM
Molecule type: double-stranded DNA, one strand shown
Medium: in vitro
Concentration: 600 nM
Setting: 8-mer, flanks averaged, mean of replicates
Direction: higher = stronger binding
Endpoint: E-score
Sequence = AGCCGAAG; value = -0.168
Sequence = AAAGAGCA; value = 0.0609
Sequence = CATGTGGG; value = -0.138
Sequence = ATGGTGGC; value = -0.121
Sequence = ACTAGCTA; value = -0.073
Sequence = AATCCAGG; value = -0.119

Set 3
Target: Interferon regulatory factor 7, full length, phosphomimetic (IRF7, Homo sapiens, UniProt Q92985, residues 1-503, S471D/S472D/S475D/S476D/S477D/S483D/S484D/S487D)
Technique: protein-binding microarray
Molecule type: double-stranded DNA, one strand shown
Medium: in vitro
Concentration: 2200 nM top
Setting: 60-bp whole probe
Together with: salmon DNA 0.4 mg/ml
Relative to: random background probes
Direction: higher = stronger binding
Endpoint: fitted relative affinity
Target sequence (chain): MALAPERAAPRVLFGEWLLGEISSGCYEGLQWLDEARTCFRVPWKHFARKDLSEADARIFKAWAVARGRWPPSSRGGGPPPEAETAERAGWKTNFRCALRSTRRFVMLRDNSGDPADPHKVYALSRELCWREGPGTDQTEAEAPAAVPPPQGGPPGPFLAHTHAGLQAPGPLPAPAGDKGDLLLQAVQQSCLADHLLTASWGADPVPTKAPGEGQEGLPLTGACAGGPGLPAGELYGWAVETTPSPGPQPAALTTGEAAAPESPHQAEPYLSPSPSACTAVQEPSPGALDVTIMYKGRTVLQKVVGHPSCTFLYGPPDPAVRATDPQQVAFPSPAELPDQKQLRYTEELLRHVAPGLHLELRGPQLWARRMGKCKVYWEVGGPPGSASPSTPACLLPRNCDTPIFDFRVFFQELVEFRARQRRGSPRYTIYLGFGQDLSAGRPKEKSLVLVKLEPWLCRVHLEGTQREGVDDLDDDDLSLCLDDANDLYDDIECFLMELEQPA
Sequence = GCCTAGCACCCACTTTCACTTCTCCCTTTGTGCTAGGTCTTGATTCGCTTGACGCTGCTG; value = 12.6 z-score
Sequence = GCCTAGCACTTAGGTCTCGGGTTTCGGTTAGTGCTAGTCTTGATTCGCTTGACGCTGCTG; value = 3.61 z-score
Sequence = GCCTAGCACTCATACATGCATATAGTACTGTGCTAGGTCTTGATTCGCTTGACGCTGCTG; value = 0.847 z-score

Single results of other studies
Molecule = PhoQ, residues 284 288 289 292 302 303 SMMNNA; target = PhoP, residues 12 14 15 18 19 TPWLV (Escherichia coli, UniProt P23836); test = Sort-seq, refers to: YFP reporter; test system = E. coli; setting = PhoQ-PhoP variant library, together with: 10 µM Mg2+; how to read = relative to: high Mg2+ state, higher = stronger signaling; endpoint = fold induction; value = 1.75

A few entries again (set 2):
Sequence = AAAGAGCA; value = 0.0609
